Measurements of several laboratories.
Protocols differ between the studies behind these lines. “And” joins repeats or separate records; there may be more than shown. ± marks the error that the study gave.

`CC(CCC(=O)NCC(=O)O)C1CCC2C3C(O)CC4CC(OC5OC(C(=O)O)C(O)C(O)C5O)CCC4(C)C3CCC12C` (stereo not drawn): “ratio of metabolic ratios” 1.88 (item: glucuronide to parent ratio; men, plasma; dose not given; reference: T/C over T/T).
For `CN1Cc2cc(Cl)ccc2-n2c(nnc2C2CCN(c3cccc([18F])n3)CC2)C1`, the tissue uptake was 0.78 ± 0.03 %ID/g (C57BL/6 mouse male, brain; intravenous, dose not given, 30 min, added: blocking agent 10 mg/kg).
`CC[C@H](C)[C@H](NC(=O)[C@H](CCCCN)NC(=O)CNC(=O)[C@H](CC(C)C)NC(=O)[C@H](Cc1ccccc1)NC(=O)[C@H](CCCCN)NC(=O)[C@H](CO)NC(=O)[C@H](Cc1ccccc1)NC(=O)[C@H](Cc1c[nH]c2ccccc12)NC(=O)[C@H](CCC(N)=O)NC(=O)[C@@H](NC(=O)[C@H](Cc1ccccc1)NC(=O)CCCCCNC(=O)CN1CCN(CC(=O)O)CCN(CC(=O)O)CCN(CC(=O)O)CC1)C(C)C)C(=O)N[C@@H](CCC(=O)O)C(=O)N1CCC[C@H]1C(=O)N[C@@H](CC(=O)O)C(=O)N[C@H](C(=O)N[C@@H](CO)C(=O)N[C@@H](CCC(N)=O)C(=O)N[C@H](C(=O)N[C@@H](CCC(N)=O)C(=O)N[C@@H](CC(=O)O)C(=O)N1CCC[C@H]1C(=O)N[C@@H](CC(N)=O)C(=O)N[C@@H](CC(=O)O)C(=O)N[C@@H](CCC(N)=O)C(=O)N[C@@H](Cc1ccc(O)cc1)C(=O)N[C@@H](CCC(=O)O)C(=O)N1CCC[C@H]1C(=O)N[C@@H](Cc1ccccc1)C(=O)O)C(C)C)C(C)C` [copper-64 labelled] has a tissue uptake of 3.72 ± 1.5 %ID/g (C57BL/6 mice, male, tumour-free, stomach; 4 h).
`Cc1ccc(OCCN(C)C)cc1C(=O)N[C@H](C)c1cc(-c2ccc(C#N)nc2)nc2ccccc12` has a viability of 107% and 103% (Vero E6; 1.953 µM).
With `CCCC[C@H]1C(=O)N(C)[C@@H](CCCC)C(=O)N[C@@H](CCCNC(=O)CN2CCN(CC(=O)O)CCN(CC(=O)O)CCN(CC(=O)O)CC2)C(=O)N[C@H](C(=O)NCC(N)=O)CSCC(=O)N[C@@H](Cc2ccc(O)cc2)C(=O)N(C)[C@@H](C)C(=O)N[C@@H](CC(N)=O)C(=O)N2CCC[C@H]2C(=O)N[C@@H](Cc2c[nH]cn2)C(=O)N[C@@H](CC(C)C)C(=O)N(C)CC(=O)N[C@@H](Cc2c[nH]c3ccccc23)C(=O)N[C@@H](CO)C(=O)N[C@@H](Cc2c[nH]c3ccccc23)C(=O)N1C` [gallium-68 labelled] the tissue-to-tissue ratio was 1.6 ± 0.18 (NOD/SCID mice, CHO-hPD-L1 xenograft, tumour over liver; iv, dose not given, 60 min; reference: tumour over liver).
For `COc1cnc2cccc(N3CCc4c(cc(Cn5ccnc5)cc4-c4cn(C)nc4C(F)(F)F)C3=O)c2c1`, the body weight was 24.9 g and 21.5 g and 20.7 g and 23 g (BALB/c nude mice, MV4-11 xenograft; intraperitoneal, 50 mg/kg, day 14).
Under “critical aggregation concentration”, `CCCCCCCCCCCCCC(=O)N[C@@H](Cc1ccccc1)C(=O)N[C@@H](Cc1ccccc1)C(=O)N[C@@H](Cc1ccccc1)C(=O)N[C@@H](Cc1ccc(O)cc1)C(=O)NCC(=O)N[C@@H](CCCNC(=N)N)C(=O)N[C@@H](CCCCN)C(=O)N[C@@H](CCCCN)C(=O)N[C@@H](CCCNC(=N)N)C(=O)N[C@@H](CCCNC(=N)N)C(=O)N[C@@H](CCC(N)=O)C(=O)N[C@@H](CCCNC(=N)N)C(=O)N[C@@H](CCCNC(=N)N)C(=O)N[C@@H](CCCNC(=N)N)C(=O)O` is recorded as about 12.5 µM (ANS fluorescence; 10 mM PBS; pH 7.4, added: ANS 10 µM).
`CCCCCCCCCCCCCCCC(=O)N[C@@H](CCC(=O)NCCOCCOCCC(=O)NCCOCCOCCC(=O)NCCCC[C@H](NC(=O)[C@H](CC(=O)O)NC(=O)[C@H](CC(C)C)NC(=O)[C@H](Cc1ccc(O)cc1)NC(=O)[C@H](CCCCN)NC(=O)[C@H](CO)NC(=O)[C@H](Cc1ccc(O)cc1)NC(=O)[C@H](CC(=O)O)NC(=O)[C@H](CO)NC(=O)[C@@H](NC(=O)[C@H](Cc1ccccc1)NC(=O)[C@@H](NC(=O)CNC(=O)[C@H](CCC(N)=O)NC(=O)[C@@H](CO)NC(=O)[C@@H](N)Cc1c[nH]cn1)[C@@H](C)O)[C@@H](C)O)C(=O)N[C@@H](CCCNC(=N)N)C(=O)N[C@@H](CCCNC(=N)N)C(=O)N[C@@H](C)C(=O)N[C@@H](CCC(N)=O)C(=O)N[C@@H](CC(=O)O)C(=O)N[C@@H](Cc1ccccc1)C(=O)N[C@H](C(=O)N[C@@H](CCC(N)=O)C(=O)N[C@@H](Cc1c[nH]c2ccccc12)C(=O)N[C@@H](CC(C)C)C(=O)N[C@@H](CC(C)C)C(=O)N[C@@H](CC(N)=O)C(=O)N[C@H](C(=O)NCC(=O)NCC(=O)N1CCC[C@H]1C(=O)N[C@@H](CO)C(=O)N[C@@H](CO)C(=O)NCC(=O)N[C@@H](C)C(=O)N1CCC[C@H]1C(=O)N1CCC[C@H]1C(=O)N1CCC[C@H]1C(=O)N[C@@H](CO)C(N)=O)[C@@H](C)O)C(C)C)C(=O)O` has an AUC(0-inf) of 314 ng·h/mL (rhesus monkey, plasma; subcutaneous, 60 µg/kg, single dose).
For `O=C1NC2(CC2)COc2ncc(F)cc2[C@H]2COCCN2c2ccn3ncc1c3n2`, “pancreatic amylase activity” read 2070 ± 208 U/L (Sprague-Dawley rat, male, serum; oral, 2.5 mg/kg/day, 4 weeks daily, end of recovery period).
With `CC(C)(CCCC/C=C/CCCCCC(C)(C)C(=O)O)C(=O)O` the plasma concentration was 22300 ng/mL (ICR mice, both sexes; oral, dose not given, 0.167 h).
For `Cc1ccc(NC2(C)CN(C)C2)cc1C(=O)N[C@H](C)c1cc(-c2cnn(C)c2)nc2ccccc12`, the viability was 89.4% and 88.9% and 92.6% (Vero E6; 3.906 µM).
With `C[C@H](NCc1ccc(-c2ccc(C(F)(F)F)cc2)cc1)C(N)=O` the NOAEL was over 200 mg/kg/day (general toxicity; Sprague-Dawley rat; oral, multiple doses, once daily).
`CSCC[C@H](NC(=O)CNC(=O)[C@H](CCCCN)NC(=O)[C@H](CC(C)C)NC(=O)[C@@H]1CCCN1C(=O)[C@H](CO)NC(=O)[C@H](Cc1c[nH]cn1)NC(=O)[C@H](Cc1c[nH]c2ccccc12)NC(=O)[C@H](CCCNC(=N)N)NC(=O)[C@H](CC(C)C)NC(=O)[C@H](CCCNC(=N)N)NC(=O)[C@H](Cc1c[nH]c2ccccc12)NC(=O)[C@H](CS)NC(=O)CCCCCNC(=O)CN1CCN(CC(=O)O)CCN(CC(=O)O)CCN(CC(=O)O)CC1)C(=O)O` [copper-64 labelled] has a tissue uptake of 2.39 %ID/g (ex vivo biodistribution; male C57BL/6J mice, spleen; intravenous, 1.85 MBq, 0.5 h, B16-F10 tumour-bearing).
`CC(=O)N[C@@H](CCCNC(=N)N)C(=O)N[C@@H](CCCCN)C(=O)N[C@@H](CCC(=O)N=S(c1ccc(Cl)cc1)c1ccccc1O)C(=O)N[C@H](C(=O)N[C@@H](Cc1ccc(O)cc1)C(N)=O)C(C)C` (stereo partly drawn) gave a hydrolysis of 2% (HPLC; 95% FBS in PBS; 0.5 mM, 3 h, pH 7.4, 37 °C).
For `O=C(c1cc(Cc2n[nH]c(=O)c3ccccc23)ccc1F)N1CC(CNC2CC2)C1`, the Cmax was 2720 ng/mL (female Wistar Han rat; oral, 30 mg/kg, day 28).

A few entries again:
`CC(=O)N[C@@H](CCCNC(=N)N)C(=O)N[C@@H](CCCCN)C(=O)N[C@@H](CCC(=O)N=S(c1ccc(Cl)cc1)c1ccccc1O)C(=O)N[C@H](C(=O)N[C@@H](Cc1ccc(O)cc1)C(N)=O)C(C)C` (stereo partly drawn) gave a hydrolysis of 2% (HPLC; 95% FBS in PBS; 0.5 mM, 3 h, pH 7.4, 37 °C).
